Measurements from different studies.
A part holds a random share of what one study measured. Positions count from the first letter of the parent shown.

Block 1 — technique: RNA Bind-n-Seq; form: RNA; matrix: in vitro; concentration: 365 nM; reference: no-protein control; direction: higher = stronger binding; endpoint: RBNS enrichment (R)
Target: RNA binding protein fox-1 homolog 2, RRM domain, GST-SBP tag (RBFOX2, Homo sapiens, UniProt O43251-10, residues 100-194)
Setting: natural RNA segment, single round, ends assumed
Constant ends, left off below: GGGAGUUCUACAGUCCGACGAUC … UGGAAUUCUCGGGUGCCAA
Residues (chain): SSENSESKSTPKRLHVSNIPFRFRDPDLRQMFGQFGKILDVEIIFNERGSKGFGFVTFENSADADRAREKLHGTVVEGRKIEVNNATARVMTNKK
UGUCCUUUCCUUCUAAUUUUAGAAGUUCUGUUGAGAAACACAAACUGCAAAUUUAAGUCAGCAUUUUUAGGACAGAGUGCUUGGAGAAGUGCUUUUUUGCAGUCUCCUUU: 0.344
AAGUUACCAACUUAUGUAGGGGUGAAAUUUGGAUAGGCGGUAUGCUCAAAGCAGCCAGCAAUGAGUGCUCUGUUUUGAUCCUUCUUCUUAUUAUGGAAAGGAGUACAGGA: 0.308
CCUGGGUCAUUUUAACAAGGGUGAGGUAUUUAGCAUCAAAUAAAAAGAUUGUAGUCAGCAUUUCAUUUGAGAGAAUACAAGAAAUGAAUAAAUCUAUUAGGGCCAGGGCC: 2.23
AGCCUUGUGAGUGCAAUAGGGGACUCUUAAAGCUCCAGCCACCAAACUACAUGCAUCUGUGAAAACAUGUGUAUUUAUGAAGGUGGACUUGAAGCUGCCCAGGAUUUUAA: 0.242
AUUCAGUCUGUGUAACAUUUUCUUCUGUGUUUUUUACCAGCCAGCUCAAAAGUUAAGAGCAAAUUAUGGAAGAAUAAUUUGAUGUCUUUGAGAAACCAUGAGGUUUCUUU: 2.75
GUUAUGAAACUAAUUUGCAUUUUUAUUUGCUUAAGAAAGAAAGCUGUGAUAGAUUCCAGAUAUGCUUUUUGAUGUUUUCCUCUGCUCCAGCUCCAAGAAGUCAGCACACC: 0.695
AUUGUCAUCUCCAGGACUAUGAAAGAGGGAGGGUGGCGGUGUCUCUGUCUGCAAACAGUGUCAGGAUCAGAAUCAAGGACAGGAGGCAAAGUGAAGUUCACACCCAGCAC: 0.78
UAUCCCCGCACUUAGUCAUUCGUGGUAACUAACAAUUUUGAAAUACUCAUAUAAAAUGAACAGGAAAGUGUUAGUGAUUGGGUGAUUUGAGCUACAUCUUGUUGAGCAAG: 0.339

Block 2 — technique: DHFR PCA, deep sequencing; matrix: yeast; added: (+)-ABA 4.8 µM; reference: wild-type fitted maximum; direction: higher = stronger binding; endpoint: relative binding score
Target: ABI1, truncated, D143A, DHFR fusion (Arabidopsis thaliana)
Setting: methotrexate growth selection, single substitutions
Parent: PYL1, truncated, DHFR fusion (Arabidopsis thaliana); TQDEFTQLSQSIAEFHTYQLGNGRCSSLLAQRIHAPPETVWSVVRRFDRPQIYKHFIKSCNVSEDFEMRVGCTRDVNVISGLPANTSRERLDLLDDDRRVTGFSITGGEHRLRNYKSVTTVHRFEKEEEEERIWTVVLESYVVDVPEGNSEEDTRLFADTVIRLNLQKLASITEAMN; partner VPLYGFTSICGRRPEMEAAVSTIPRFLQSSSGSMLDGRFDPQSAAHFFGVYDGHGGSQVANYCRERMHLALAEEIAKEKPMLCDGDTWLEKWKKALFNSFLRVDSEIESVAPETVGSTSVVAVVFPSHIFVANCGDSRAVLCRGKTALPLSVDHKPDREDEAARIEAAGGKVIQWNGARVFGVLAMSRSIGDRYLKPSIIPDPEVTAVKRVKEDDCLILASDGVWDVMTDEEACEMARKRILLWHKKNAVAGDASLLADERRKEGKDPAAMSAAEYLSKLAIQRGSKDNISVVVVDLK
Q167T: 67.6%
I52T: 77.1%
I133S: 81.4%
N22D: 80%
K54Y: -2.77%
D96R: -8.38%
V142Y: 8.81%
D48E: 38.5%
G108K: 8.45%
Q10L: 53.2%
T6A: 80.2%
E127S: 80.5%
L166Y: 0.254%
Q19V: 70.2%
R49L: 38.4%
C72I: 51.4%
H16P: 11.2%
R123N: 68.2%
L28T: 30.8%
R163N: 21.3%
E67P: 58.7%
I33T: 0.934%
N77F: 75.8%
I133N: 81.9%
L8F: 79.8%

Block 3 — Molecule: B1 (DEF8 RING domain); technique: yeast two-hybrid; matrix: yeast; setting: mostly zero background; reference: not given; direction: higher = stronger interaction; endpoint: lacZ reporter activity
B1: DEF8 RING domain (UniProt Q6ZN54); chain AGRLGCSLTEIHTLFAKHIKLDCERCQAKGFVCELCREGDVLFPFDSHTSVCADCSAVFHRDCYYDNSTTCPKCARLSLRK
UBE2L3 UBC core domain (UniProt P68036): 0
UBE2Z UBC core domain (UniProt Q9H832): 0
UBE2J2 UBC core domain (UniProt Q8N2K1): 0
UBE2S UBC core domain (UniProt Q16763): 0
UBE2M UBC core domain (UniProt P61081): 0
UBE2R2 UBC core domain (UniProt Q712K3): 0
UBE2O UBC core domain (UniProt Q9C0C9): 0
UBE2E3 UBC core domain (UniProt Q969T4): 0
UBE2Q1 UBC core domain (UniProt Q7Z7E8): 0
UBE2I UBC core domain (UniProt P63279): 0

Block 4 — target: CCND2, cyclin fold, Cln2 fusion (human); technique: yeast growth competition, sequencing; matrix: yeast; setting: weak parent motif; reference: not given; direction: higher = stronger binding; endpoint: normalised enrichment score
Parent: SCAPER docking peptide (human); SNARRSLNFGGST; partner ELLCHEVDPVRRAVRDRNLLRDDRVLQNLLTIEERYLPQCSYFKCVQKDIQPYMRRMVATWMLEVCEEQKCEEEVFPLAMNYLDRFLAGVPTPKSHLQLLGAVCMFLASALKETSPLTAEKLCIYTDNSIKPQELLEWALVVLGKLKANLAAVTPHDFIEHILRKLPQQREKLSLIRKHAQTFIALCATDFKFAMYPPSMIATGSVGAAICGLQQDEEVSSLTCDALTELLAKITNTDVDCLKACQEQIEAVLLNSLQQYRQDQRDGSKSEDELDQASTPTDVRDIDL
SNARRFLNFGGST [S6F]: 0.977
SNARRSLNFGRST [G11R]: -0.118
SNARRALNFGGST [S6A]: 0.951
SNARRSLNFGYST [G11Y]: 0.153
SNARFSLNFGGST [R5F]: 0.42
SNARRSLNFTGST [G10T]: 0.385
SNARLSLNFGGST [R5L]: 0.204
SNARRSLNFGNST [G11N]: 0.293
SNARRSLNTGGST [F9T]: 0.267
SNARRYLNFGGST [S6Y]: 0.426
SRARRSLNFGGST [N2R]: 0.0558
SNARRSDNFGGST [L7D]: 0.391
SNARRSLNHGGST [F9H]: 0.0308
SNARRKLNFGGST [S6K]: 1.19
SNARHSLNFGGST [R5H]: 0.0876
SNARRNLNFGGST [S6N]: 0.328
SNAYRSLNFGGST [R4Y]: 0.154
SNARRSLNFGGLT [S12L]: 0.566
SNKRRSLNFGGST [A3K]: 0.109
SNARRSLKFGGST [N8K]: 0.433
SNAERSLNFGGST [R4E]: -0.0728
SNARRSLNFKGST [G10K]: 0.406
SNARRSLNFGGQT [S12Q]: 0.169
SNARRSLNFGGIT [S12I]: 0.131
SNGRRSLNFGGST [A3G]: -0.2

Some of these lines once more (block 3):
UBE2R2 UBC core domain (UniProt Q712K3): 0
UBE2M UBC core domain (UniProt P61081): 0
UBE2O UBC core domain (UniProt Q9C0C9): 0
UBE2Q1 UBC core domain (UniProt Q7Z7E8): 0
UBE2I UBC core domain (UniProt P63279): 0
